Measured values gathered from unrelated publications.
Numbered parts are unrelated; each lists some results of a single study.

Block 1
Target: Sal-like protein 4, full length isoform A (SALL4, Homo sapiens, UniProt Q9UJQ4, residues 1-1053)
Sequence of UniProt Q9UJQ4 (whole entry, looked up): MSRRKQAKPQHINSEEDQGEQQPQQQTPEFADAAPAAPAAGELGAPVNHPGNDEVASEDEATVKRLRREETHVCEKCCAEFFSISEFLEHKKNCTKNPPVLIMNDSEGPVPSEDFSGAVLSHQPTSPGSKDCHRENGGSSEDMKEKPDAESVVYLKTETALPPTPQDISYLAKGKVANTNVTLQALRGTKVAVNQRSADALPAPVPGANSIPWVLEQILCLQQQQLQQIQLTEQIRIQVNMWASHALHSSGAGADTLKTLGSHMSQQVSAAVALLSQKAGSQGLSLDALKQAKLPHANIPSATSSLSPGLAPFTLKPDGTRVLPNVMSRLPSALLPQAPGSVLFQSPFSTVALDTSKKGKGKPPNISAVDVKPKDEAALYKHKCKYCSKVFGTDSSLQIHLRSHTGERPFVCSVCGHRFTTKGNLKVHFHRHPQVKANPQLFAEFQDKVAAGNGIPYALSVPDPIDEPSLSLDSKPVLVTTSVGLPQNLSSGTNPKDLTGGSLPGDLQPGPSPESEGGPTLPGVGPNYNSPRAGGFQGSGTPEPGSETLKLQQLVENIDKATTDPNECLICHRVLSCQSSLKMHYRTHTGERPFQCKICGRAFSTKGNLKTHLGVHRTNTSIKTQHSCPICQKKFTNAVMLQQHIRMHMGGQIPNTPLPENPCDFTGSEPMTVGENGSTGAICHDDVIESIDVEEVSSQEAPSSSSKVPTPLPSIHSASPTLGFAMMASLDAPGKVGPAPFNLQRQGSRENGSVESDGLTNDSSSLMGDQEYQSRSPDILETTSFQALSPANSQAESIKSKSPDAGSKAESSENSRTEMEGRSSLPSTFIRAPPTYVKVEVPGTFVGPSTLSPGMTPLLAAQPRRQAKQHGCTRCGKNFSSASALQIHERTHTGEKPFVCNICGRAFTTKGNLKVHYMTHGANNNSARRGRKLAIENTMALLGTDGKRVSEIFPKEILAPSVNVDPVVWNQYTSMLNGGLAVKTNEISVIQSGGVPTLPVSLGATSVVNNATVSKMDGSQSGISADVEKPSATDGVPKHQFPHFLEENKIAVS
Method: universal PBM
Molecule type: double-stranded DNA, one strand shown
Sample: in vitro
Tested at: 600 nM
Notes: 8-mer, flanks averaged, mean of replicates
Direction: higher = stronger binding
Strand	E-score
ATTCGCCC	-0.166
CCGTTACC	-0.079
CCGTAGTC	-0.175
ATTGACTG	0.0366
CATCTCGC	-0.222
ATTAAGCC	0.164
GGAGCGTA	-0.0325
GATCTAGA	0.00874
AGAGCCCG	-0.277
GCTTACCA	0.00412
CGAGATGA	-0.108
AACACCAC	-0.0591
ATACCCAA	0.00686
AGCGAGCA	-0.127
CCGTATTA	-0.0436
CAAGCCCC	-0.341
GTATACCA	0.0572
CGACTCCG	-0.358
AATAAAAA	0.376
GTATGCAC	-0.011
GCACGTAA	0.000475
GCGAGTTA	-0.00359
GCGCGTAC	-0.109
CGCCATAA	0.127
GGAAGGCA	-0.179

Block 2
Target: Interferon regulatory factor 7, full length, phosphomimetic (IRF7, Homo sapiens, UniProt Q92985, residues 1-503, S471D/S472D/S475D/S476D/S477D/S483D/S484D/S487D)
Method: protein-binding microarray
Molecule type: double-stranded DNA, one strand shown
Sample: in vitro
Tested at: 2200 nM top
Notes: 60-bp whole probe
Together with: salmon DNA 0.4 mg/ml
Reference: random background probes
Direction: higher = stronger binding
Constant ends, left off below: GCCTAGCAC … GTCTTGATTCGCTTGACGCTGCTG
Target sequence (chain): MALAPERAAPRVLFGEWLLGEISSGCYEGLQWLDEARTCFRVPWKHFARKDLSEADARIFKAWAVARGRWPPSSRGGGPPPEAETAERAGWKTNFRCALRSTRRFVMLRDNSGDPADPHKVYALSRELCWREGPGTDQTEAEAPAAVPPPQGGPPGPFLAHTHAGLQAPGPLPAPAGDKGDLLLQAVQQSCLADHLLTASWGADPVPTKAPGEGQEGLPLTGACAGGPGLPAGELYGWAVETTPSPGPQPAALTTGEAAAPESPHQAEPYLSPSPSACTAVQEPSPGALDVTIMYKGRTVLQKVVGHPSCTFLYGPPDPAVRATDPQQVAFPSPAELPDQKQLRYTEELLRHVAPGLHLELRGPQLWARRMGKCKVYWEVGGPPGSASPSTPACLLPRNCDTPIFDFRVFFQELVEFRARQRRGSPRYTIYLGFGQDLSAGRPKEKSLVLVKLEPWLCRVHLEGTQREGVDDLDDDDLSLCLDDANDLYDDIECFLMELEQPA
Strand	fitted relative affinity [z-score]
TTAGGCATCGGTCTCGGTTAGTGCTAG	-0.0422
AACGGTTTCGACTTTCGGGACGTGCTA	8.62
TCAGTTCTGCTTCTTAGACTGTGCTAG	1.66
TTAGAACTGGGATTTCGATTAGTGCTA	1.02
TCATCTTTATGCACTCTTACTGTGCTA	1.16
GATGGTATCCTTATCCTGACGTGCTAG	0.878
GACGATTTCAGTCTCGCGACGTGCTAG	0.775
TCAGTTCTGCTTTGCCTACTGTGCTAG	2.54
GACGGAGTGGACACTGGGGACGTGCTA	-0.726
GTCGGTTTCGACTATCGGGACGTGCTA	4.76
TGAGGTATCGGGTTTCGGTTAGTGCTA	3.46
GTCACATTGTGCAATCTTAATGTGCTA	0.447
GACTGACTGCTTTTCCTGACGTGCTAG	1.2
TTAGGTCTCGGTTTCGGTTTGTGCTAG	12.5
GACGGACTGGGGTTTCGGTACGTGCTA	1.09
GACGATATCAGACTGGCGACGTGCTAG	-0.186
TTAGGTATCAGGACTGGGTTAGTGCTA	-0.394
GACGATATCGGGTATGGAGACGTGCTA	0.089
TGAACTTGGAATTTCCCTCTGTGCTAG	0.44
TTCACTTTCTTTACTTCACTGTGCTAG	3.44
GACGGACTGCTTCTCCTGCCGTGCTAG	0.31
GACGGTCTCGGATTGGGGACGTGCTAG	0.275
AACGGTTTCGACTATCGGGACGTGCTA	3.73
GATGGTCTCGGTCTCGGGACGTGCTAG	-0.0201
TTAGATCTCAGCCTGGATTAGTGCTAG	0.0147

Block 3
Target: RNA binding protein fox-1 homolog 2, RRM domain, GST-SBP tag (RBFOX2, Homo sapiens, UniProt O43251-10, residues 100-194)
Method: RNA Bind-n-Seq
Molecule type: RNA
Sample: in vitro
Tested at: 365 nM
Notes: natural RNA segment, single round, ends assumed
Reference: no-protein control
Direction: higher = stronger binding
Residues (chain): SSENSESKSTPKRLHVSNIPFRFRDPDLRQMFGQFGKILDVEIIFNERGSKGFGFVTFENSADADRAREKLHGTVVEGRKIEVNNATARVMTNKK
Strand	RBNS enrichment (R)
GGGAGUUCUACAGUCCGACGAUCGUAUUUAUAAGUAUUUUCUUAAGGUUUGUGAAGAGUAUUUGCAUUGUGUCUUCAUUUUAAUGUGUUUGCAAUCGCUCCGCUCCAGGAAGAACGGAAAUGCUGUCUUGUGAUGGAAUUCUCGGGUGCCAA	0.661
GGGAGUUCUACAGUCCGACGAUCUUAUCUGAGCCAAACCCCUUAGCAGAAGAAACUGUCCAGCCACACCGAGUGCUCGAAUGGUGUAUUUACAAUGUGAUUCUAGUCUCUUCUUCAGGGAACAUGCCUGCAUUUGGAAUUCUCGGGUGCCAA	1.91
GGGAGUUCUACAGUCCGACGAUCAUGUGUGGUGUUGGCAGUCUAAUUUGCUUCUGUUAAAUGUUGUAGAACCUUUUUCACUAGGAAAUAAGAUUCAUUUCUUUCGGCAGUAGAUGUAGAUUCAUCUUUUAACGUGGAAUUCUCGGGUGCCAA	0.517
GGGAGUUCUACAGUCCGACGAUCUUUGCAUCUGUGUGGCUUGCUUCCAGUCUGGCCUGUCCUUUCCAGCUGCCUUUUGUCUAGCCUGCUAUGGGGGGCCAGAUUAUCUUGAUAAGAGCAGGUGAUUUGGGGACUGGAAUUCUCGGGUGCCAA	1.59
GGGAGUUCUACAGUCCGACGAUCGGCUGGCUGGGGACUUUCCCCCCACCUGUCCCCUCCUCCUUUCCCCCCUCUUGAAGAAGAUGGGCAGAGGAGUGACAGCCGAAUGACAGCCGGCAGCAACUGGAAUGGCAUGGAAUUCUCGGGUGCCAA	0.925
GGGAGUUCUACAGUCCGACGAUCGUAGUCAUGCACUUUGUAUUAAUAUAUUAGAAAUCUACAGAUCUGUUUUGUACUUUUUAUACUGUUGGAUACUUAUAAUCAAAACUUUACUCUAGGGUAUUGAAUAAAUUUGGAAUUCUCGGGUGCCAA	0.574
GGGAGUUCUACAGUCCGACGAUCGCAUCGGGAAAGAAGAAACUCCGAAGAAAAGAAUUUUAGUGUUAAUGACUCUUUCUGAAGGAAGAGAAGACAUUUGCCUUUUGUUAAAAGAUGGUAAACCAGAUCUGUCUUGGAAUUCUCGGGUGCCAA	0.616
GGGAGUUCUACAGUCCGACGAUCCUCCUUAGGGAGUCUCUAAAACCGCUUCACUAUCAGCAACCAGGAGUACUAGAAGCCAGAGCACUCUUCCUCCUGGCUCCUCCCCAGUGCUCUAGUGCUGUAGGAACCAAUGGAAUUCUCGGGUGCCAA	0.269
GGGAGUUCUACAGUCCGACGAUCCGCAGUUUCCAUGUGUUUCAGGAUCUUCGGGCUGUCGUUAGACAGGUUAAUGAAGAACACUUCUCAACAGUUUCCUUUUUGUUUUCCUUUAUAAUUCACUAAAAUAAAGCUGGAAUUCUCGGGUGCCAA	0.335
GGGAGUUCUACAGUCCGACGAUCCCUAAAAUAGAAUCAUUGCUUUUUGUGUUUCUCAUCCCAACCUUGAAGUUGUCAUGUCAUCCUUUUCUGUCUUCCACUCUCCUGGUCUAGAACCUUGUUGAUCAUGCUCAUGGAAUUCUCGGGUGCCAA	0.707
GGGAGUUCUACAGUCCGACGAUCACGGACCGCUCCCUCUCUUCUUCAGGAGACUUUAUAAUUUACCUGAAGAGGUUUUCUUGAUAAUUUUCCUUUAAUAUGAAAUUUUCGUGCUUUAUCAGUAGCCCAGGAUAUGGAAUUCUCGGGUGCCAA	1.69
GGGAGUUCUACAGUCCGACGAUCCACCUUCUCAUCUCUACCUUUUAAGGGAUAUGGAAAGGUCUGGAGCUCUGUCUGACCCCACACUCUCCAUUUUCCCCAGCCAAGGCAGACAGCAGCACUAGCAGACGGUCUGGAAUUCUCGGGUGCCAA	0.285

Block 4
Target: RING finger protein unkempt homolog, zinc fingers 1-6, GST-SBP tag (UNK, Homo sapiens, UniProt Q9C0B0, residues 30-357)
Method: RNA Bind-n-Seq
Molecule type: RNA
Sample: in vitro
Tested at: not given
Notes: RNA with constant flanks, human-mouse chimeric sites, ends assumed
Reference: input RNA pool
Direction: higher = stronger binding
Residues (chain): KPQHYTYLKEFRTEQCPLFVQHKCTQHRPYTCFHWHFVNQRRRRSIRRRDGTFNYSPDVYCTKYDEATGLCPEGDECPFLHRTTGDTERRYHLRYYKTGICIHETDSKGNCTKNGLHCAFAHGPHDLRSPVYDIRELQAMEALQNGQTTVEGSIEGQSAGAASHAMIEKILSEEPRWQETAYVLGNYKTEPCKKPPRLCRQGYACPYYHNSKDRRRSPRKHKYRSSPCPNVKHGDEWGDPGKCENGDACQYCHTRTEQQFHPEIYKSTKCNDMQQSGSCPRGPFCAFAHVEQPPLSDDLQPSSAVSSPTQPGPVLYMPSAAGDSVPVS
Strand	bound/input enrichment [ratio]
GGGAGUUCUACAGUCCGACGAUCGUAUACGGUUAUCGAGGAAAGGACUGUAGAGCGAAUGUUUACCUUCUUCCGACCGGGGAGAUAGUUUAUUUUAUCGCCUCAGUGGUAGUCCUGUUUAAUUAUGAGGAGAGGACUCAGCGACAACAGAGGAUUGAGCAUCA	0.323
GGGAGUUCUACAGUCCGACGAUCUUACCCGAAAAUGAAGAUGAGCUGGAGAGCACCAACAGGCGCUACACCAAGAGGGACUGCAGCACUUUCCUCAGAACUAGCGAGACGGGCAUCGUGGACCAGGUCAUGGUCACUCUCAACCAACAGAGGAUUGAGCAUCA	0.164
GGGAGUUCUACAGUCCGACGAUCACAGUUAUAUUGUUGAGUUUCAUUUUCUUGUAUGUUUGUAGUGUCUGCUUGCCUGUGACUUCUGGUAAAAUAAAAUAAGCCUUUGAAUUAGCAUGCUCAUGGUAUUUAACAUUUUCUAAACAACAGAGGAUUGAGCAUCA	0.806
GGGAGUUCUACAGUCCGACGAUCACUCAGAGAUCCACCUCCCAAAGUGCUGGGAGUAAAGGUGUGGCCACUCAAUUCUCCUUGAUGGAUAUAUAUUUUUUUUAAUAUGAAUCUUCCUGUUCGUCCAGGGAAGAAAGAUUUGUUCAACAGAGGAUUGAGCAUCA	0.479
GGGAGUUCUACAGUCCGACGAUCGUUGCCAGCUUCCGGUUCCGUUGGGCUCGGUUCUCUCCUGAGCUACGGUCCCUGGCACUCUCAAUCCGCCAUCCAACAAACAUGGAUGAUCAGGUAAAGUUUGUGGAGCCCAGCCGGCAGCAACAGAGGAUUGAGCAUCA	0.14
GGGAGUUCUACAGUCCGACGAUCGAUAAGAAAAGCUUGUUGGAGACCCGCUUGCAUGUCACUGGUAGAGACCUGAGGUGUAAAAUAGCUGAAACUUUCGGAUUUCAAGAAAAUUACAUCAAGAUCGUAAUAAAUAAGAAGCAGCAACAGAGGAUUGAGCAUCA	0.49
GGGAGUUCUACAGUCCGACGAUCGCAAGAGAUGAUGAGGCGGCAGCUGUUGCCCUUUCCUCUCUCGUUCAUGCUUUGGAUGAGUUAAACAUGGUGGCCAUCGUCCGAUAUGCUUAUGACAAAAGAUCUAAUCCUCAAGUUGGUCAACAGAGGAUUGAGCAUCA	0.142
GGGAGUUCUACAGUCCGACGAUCAGUGUGCAGGAAUUCAUGACCUUUACAAGUCAACUGAUUGUGGAACGCUCGGGGAAAGGCAGCAGAGCUUCUGUCAAAGAACAAGAGUAUCUUUGCCACGUCUACGUCCGGAAUGAUAGUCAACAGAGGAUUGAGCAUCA	0.137
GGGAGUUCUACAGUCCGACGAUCUACUCAACUUUCUUGCCACGUUUUGAAUUCCAAGACAUUAUUCCUCCAGAUGACUUCCUAACGAGUGAUGAAGAAGUAGAUUUGGUUUUAUUUGGAACUAUGAGAGGACAAGUUGUUGGACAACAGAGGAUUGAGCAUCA	0.219
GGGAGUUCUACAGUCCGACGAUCGUGCCCUCCUUCUCGCUGCGGAGCCCGAGCUGGGAACACCCCUUCCGCUGGUACCCUGCACACAGCCGCCUCUUCGAUCAAGCUUUCGGGGUGCCCCGGUUGCCCGAUGAGUGGUCGCAGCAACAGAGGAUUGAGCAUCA	0.0889
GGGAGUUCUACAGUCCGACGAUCUCUUAACUUAUUCAUUUAACUUAUUUUUAUAGCUAGAUAAAUAUUGUUAGUCUUAGAGAGUAGUUCACAUUUUUUGAGAAGCAUGCCCUCCCUGUCCAUUUGUCUUACAAUAACACUCAGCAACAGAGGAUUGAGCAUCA	6.9
